Experimental data of several laboratories.
Parts stem from different laboratories: compare values within a part only.

Series 1
Target: Prothrombin, mature alpha-thrombin (F2, Homo sapiens, UniProt P00734)
Technique: aptamer microarray, sandwich
Molecule type: DNA with 2'F-ANA
Matrix: in vitro
Concentration: 200 nM
Notes: whole 15-mer aptamer, many near background
Added: Cy3 exosite-II aptamer, 400 nM
Reading: higher = stronger binding
Strand	mean fluorescence intensity [a.u.]
GGTTGGTGTGGTTGG (2'F-ANA at 2 4 6 7 10 11 14 15)	57.1
GGTTGGTGTGGTTGG (2'F-ANA at 1 4 5 12 14 15)	77.4
GGTTGGTGTGGTTGG (2'F-ANA at 2 3 4 5 6 9 15)	80.8

Single results of other studies
CBF1 full length, N-terminal tag: Centromere-binding protein 1, full length, N-terminal tag (CBF1, Saccharomyces cerevisiae, UniProt P17106, residues 1-351)
Sequence of UniProt P17106 (whole entry, looked up): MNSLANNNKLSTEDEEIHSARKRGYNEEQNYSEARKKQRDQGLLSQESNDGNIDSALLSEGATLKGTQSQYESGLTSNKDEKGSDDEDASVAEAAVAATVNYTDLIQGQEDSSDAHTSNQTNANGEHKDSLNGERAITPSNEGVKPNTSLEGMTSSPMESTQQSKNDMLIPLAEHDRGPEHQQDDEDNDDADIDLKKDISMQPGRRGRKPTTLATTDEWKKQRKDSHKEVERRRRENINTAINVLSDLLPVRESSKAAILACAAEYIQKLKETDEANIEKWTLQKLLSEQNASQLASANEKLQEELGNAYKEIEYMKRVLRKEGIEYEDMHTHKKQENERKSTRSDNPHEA
SP1: Transcription factor Sp1 (SP1, Homo sapiens, UniProt P08047, residues 1-785, full length assumed)
Sequence of UniProt P08047 (whole entry, looked up): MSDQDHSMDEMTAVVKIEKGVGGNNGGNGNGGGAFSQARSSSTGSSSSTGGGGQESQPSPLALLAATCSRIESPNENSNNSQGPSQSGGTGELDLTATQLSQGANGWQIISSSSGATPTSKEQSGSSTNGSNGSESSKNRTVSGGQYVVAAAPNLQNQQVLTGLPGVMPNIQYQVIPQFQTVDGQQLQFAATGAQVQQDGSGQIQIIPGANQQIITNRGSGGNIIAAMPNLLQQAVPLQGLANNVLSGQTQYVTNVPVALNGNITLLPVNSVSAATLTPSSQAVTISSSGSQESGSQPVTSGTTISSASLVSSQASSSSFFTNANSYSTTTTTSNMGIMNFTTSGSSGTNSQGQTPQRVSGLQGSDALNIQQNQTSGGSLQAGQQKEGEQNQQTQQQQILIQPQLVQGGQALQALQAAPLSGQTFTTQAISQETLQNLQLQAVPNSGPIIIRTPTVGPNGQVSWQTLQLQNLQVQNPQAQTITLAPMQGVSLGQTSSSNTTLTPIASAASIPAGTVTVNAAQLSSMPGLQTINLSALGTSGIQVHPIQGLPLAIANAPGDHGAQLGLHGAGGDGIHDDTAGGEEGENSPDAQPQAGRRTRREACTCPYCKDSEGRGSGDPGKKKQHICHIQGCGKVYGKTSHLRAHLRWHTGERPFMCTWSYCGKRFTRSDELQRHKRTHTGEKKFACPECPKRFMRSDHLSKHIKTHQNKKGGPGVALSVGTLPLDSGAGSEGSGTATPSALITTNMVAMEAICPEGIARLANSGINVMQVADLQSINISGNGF
Molecule	target	assay	system	conditions	scale	measurement	value
PhoQ, residues 284 288 289 292 302 303 SLCLSL	PhoP, residues 12 14 15 18 19 FWNTL (Escherichia coli, UniProt P23836)	Sort-seq, refers to: YFP reporter	E. coli	PhoQ-PhoP variant library, added: 10 µM Mg2+	relative to: high Mg2+ state, higher = stronger signaling	fold induction	5.49
CTATTCAATCACCCCCTCGTGAGAATTTAATGTTTCGTCTTGATTCGCTTGACGCTGCTG	CBF1 full length, N-terminal tag	protein-binding microarray	double-stranded DNA, one strand shown, in vitro	0.8 µM, whole 60-bp probe, no competitor	higher = stronger binding	fluorescence intensity	655 a.u.
ATCCCACC	SP1	protein-binding microarray	double-stranded DNA, one strand shown, in vitro	not given, k-mer, scored over probes, only values ≥0.25	higher = stronger binding	E-score	0.363
GAAATTATATTGTATCGTGTCACCCCCATGTCATAGGTCTTGATTCGCTTGACGCTGCTG	CBF1 full length, N-terminal tag	protein-binding microarray	double-stranded DNA, one strand shown, in vitro	0.8 µM, whole 60-bp probe, no competitor	higher = stronger binding	fluorescence intensity	584 a.u.
GGGGTATA	SP1	protein-binding microarray	double-stranded DNA, one strand shown, in vitro	not given, k-mer, scored over probes, only values ≥0.25	higher = stronger binding	E-score	0.295
GCCTAGCACTTAGGACTGCTTTTCTTTTAGTGCTAGGTCTTGATTCGCTTGACGCTGCTG	Interferon regulatory factor 5, full length, phosphomimetic (IRF5, Homo sapiens, UniProt Q13568-2, residues 1-514, K96S/S451D/S453D/S456D/S462D)	protein-binding microarray	double-stranded DNA, one strand shown, in vitro	250 nM, 60-bp whole probe, added: salmon DNA 0.4 mg/ml	relative to: random background probes, higher = stronger binding	log fluorescence	0.5 z-score

Some of these lines once more (series 1):
Strand	mean fluorescence intensity [a.u.]
GGTTGGTGTGGTTGG (2'F-ANA at 1 4 5 12 14 15)	77.4
